Assay results of several laboratories.
Parts stem from different laboratories: compare values within a part only. Substitutions count along the parent as printed.
Sequence of UniProt P9WI81 (whole entry, looked up): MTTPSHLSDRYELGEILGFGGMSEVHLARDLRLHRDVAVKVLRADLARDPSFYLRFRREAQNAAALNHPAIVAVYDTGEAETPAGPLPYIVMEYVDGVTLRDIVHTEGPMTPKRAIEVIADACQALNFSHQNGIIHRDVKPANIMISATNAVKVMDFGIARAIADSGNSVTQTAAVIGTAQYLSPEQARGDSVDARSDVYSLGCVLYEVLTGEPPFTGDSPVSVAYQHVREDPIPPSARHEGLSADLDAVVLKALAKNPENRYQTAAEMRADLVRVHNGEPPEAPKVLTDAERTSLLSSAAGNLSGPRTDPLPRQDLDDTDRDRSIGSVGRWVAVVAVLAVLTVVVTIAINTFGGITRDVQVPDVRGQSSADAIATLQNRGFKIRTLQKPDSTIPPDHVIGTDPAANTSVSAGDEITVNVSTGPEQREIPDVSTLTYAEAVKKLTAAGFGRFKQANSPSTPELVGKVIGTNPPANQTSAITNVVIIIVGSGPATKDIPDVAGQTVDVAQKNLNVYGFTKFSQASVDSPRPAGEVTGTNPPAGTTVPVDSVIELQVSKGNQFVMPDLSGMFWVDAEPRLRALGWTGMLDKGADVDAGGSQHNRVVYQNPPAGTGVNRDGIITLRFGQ
Sequence of UniProt P21673 (whole entry, looked up): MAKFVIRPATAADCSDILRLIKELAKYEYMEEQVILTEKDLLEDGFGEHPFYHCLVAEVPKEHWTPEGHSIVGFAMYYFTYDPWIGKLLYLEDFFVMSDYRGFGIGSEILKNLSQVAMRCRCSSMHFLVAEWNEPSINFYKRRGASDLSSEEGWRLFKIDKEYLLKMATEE

Series 1 — target: CCNE1, cyclin fold, Cln2 fusion (human); technique: yeast growth competition, sequencing; medium: yeast; notes: strong parent motif; baseline: not given; direction: higher = stronger binding; starting sequence: viral docking peptide; KKAKRRLFTISDS
`F8A`: “normalised enrichment score” 0.405.
Under “normalised enrichment score”, `R6A` is recorded as 2.73.
`S11A` — result for “normalised enrichment score”: 3.73.
Under “normalised enrichment score”, `R5A L7A` is recorded as -0.216.
`L7A` — result for “normalised enrichment score”: 0.11.
Under “normalised enrichment score”, `R5K F8L` is recorded as 0.199.
Under “normalised enrichment score”, `I10A` is recorded as 4.59.
`K1A` — result for “normalised enrichment score”: 3.86.

Series 2 — effect on: peptide-MHC binding; form: peptide; tested at: concentration not given
Target: HLA class I histocompatibility antigen, A alpha chain, allele A*80:01 (Homo sapiens, UniProt P04439)
`MHDPHSIPL` — result for binding: “inactive”.
For `MSDIFASEV`, binding read “inactive”.
Under binding, `MSRKLHRYI` is recorded as “inactive”.
Under binding, `FEFILRYGD` is recorded as “inactive”.
For `FTRYRKEAI`, binding read “inactive”.
`VLIRRCHYL`: binding “inactive”.
Under binding, `DMYFCHFYK` is recorded as “inactive”.
Under binding, `NLFEIEWEE` is recorded as “inactive”.

Other studies, line by line
`O=C(O)[C@@H]1CCN1` has a remaining activity of 95.6% (Diamine acetyltransferase 1 (Homo sapiens, UniProt P21673); inhibitor; 10 µM; baseline: control).
For `NC(=O)C[S+]([O-])C(c1ccccc1)c1ccccc1` (centres unmarked), the viability was 90.2% (A-375; 100 µM, 18 h).
The remaining signal of `C[C@H]1CC[C@H](n2c3cnccc3c3cnc(Nc4ccc5c(n4)CCN(C(=O)CO)C5)nc32)CC1` is reported as 51% (Serine/threonine-protein kinase PknB (pknB, Mycobacterium tuberculosis, UniProt P9WI81); cell-free assay; 1 µM).
The inhibition of `Cc1nc(Sc2nnc(-c3ccccc3)n2C)c2sc(=S)n(-c3ccccc3)c2n1` is reported as 9% (vesicular stomatitis virus glycoprotein; viral entry, VSVΔG-G pseudovirus; 10 µM).

For quick reference, copied from above (series 2):
`MHDPHSIPL` — result for binding: “inactive”.
For `MSDIFASEV`, binding read “inactive”.
Under binding, `MSRKLHRYI` is recorded as “inactive”.
